# Published values pooled from the literature.
# Each line is one published result; not all experiments were run side by side. “And” joins repeats or separate records; there may be more than shown. ± marks the error that the study gave.
Compound,tested on,assay,system,setting,endpoint,value
NC(=O)[C@@H]1CC(F)(F)CN1C(=O)c1ccc(N2CC(F)(F)C2)c(OCC2CC2)n1,,,C57BL/6 mice,"intravenous, 0.5 mg/kg",half-life,107 min
Cc1ccc(NC(=O)c2ccc(CN3CCN(C)CC3)cc2)cc1Nc1nccc(-c2cccnc2)n1,human coronavirus OC43,virus-induced cell killing,MRC-5,screen,maximum inhibition,9.15%
Cc1[nH]c(C)c(S(=O)(=O)Nc2ccc(S(F)(F)(F)(F)F)cc2)c1C(=O)N1CCC(F)(F)C1,,,"mice, brain","intraperitoneal, 40 mg/kg",half-life,> 480 min
C[C@H]1COCCN1c1nc(NCc2cccnc2C(F)(F)F)c2cccnc2n1,,,BALB/c mice,"intravenous, 5 mg/kg",half-life,210 min
Nc1nc(Cl)nc2c1ncn2[C@@H]1O[C@H](CO)[C@@H](O)[C@@H]1F,human coronavirus OC43,virus-induced cell killing,MRC-5,screen,maximum inhibition,18.1%
Cc1ncc2n1-c1ccc(Cl)cc1C(c1ccccc1F)=NC2,,,"wild-type mice, plasma","intravenous, 0.3 mg/kg, together with: 14-day BC 500 mg/kg",half-life,16.2 ± 1.1 min
C[C@H]1N=C(c2ccccc2F)c2cc(Br)ccc2-n2cnc(C(=O)O)c21,,,"mice, blood","oral gavage, 100 mg/kg",half-life,50.2 min
COc1cc(C)[nH]c(=O)c1CNC(=O)c1c(C)n([C@H](C)C2CCN(CC(F)(F)F)CC2)c2ccccc12,,,"female CB17 SCID mice, HT-1376 xenograft, plasma","75 mg/kg, day 1",half-life,74.4 min
Cc1nc([C@@](C)(CC2CC2)NC(=O)c2cc(OCC(F)(F)F)c(C3CC3)cn2)no1,,,C57BL/6 mice,"oral, 2.8 mg/kg",half-life,505 min
CC[C@H](C)[C@H](NC(=O)[C@H](Cc1ccccc1)NC(=O)[C@H](CCC(=O)O)NC(=O)[C@H](CCCCN)NC(=O)[C@H](C)NC(=O)[C@H](C)NC(=O)[C@H](CCC(N)=O)NC(=O)CNC(=O)[C@H](CCC(=O)O)NC(=O)[C@H](CC(C)C)NC(=O)[C@H](Cc1ccc(O)cc1)NC(=O)[C@H](CO)NC(=O)[C@H](CO)NC(=O)[C@@H](NC(=O)[C@H](CC(=O)O)NC(=O)[C@H](CO)NC(=O)[C@@H](NC(=O)[C@H](Cc1ccccc1)NC(=O)[C@@H](NC(=O)CNC(=O)[C@H](CCC(=O)O)NC(=O)[C@H](C)NC(=O)N(N)Cc1c[nH]cn1)[C@@H](C)O)[C@@H](C)O)C(C)C)C(=O)N[C@@H](C)C(=O)N[C@@H](Cc1c[nH]c2ccccc12)C(=O)N[C@@H](CC(C)C)C(=O)N[C@H](C(=O)N[C@@H](CCCNC(=N)N)C(=O)NCC(=O)N[C@@H](CCCNC(=N)N)C(=O)NCC(=O)O)C(C)C,,,"male ICR mice, plasma","intravenous bolus, 1 mg/kg",half-life,107 min and 127 min and 65.4 min

# Excerpt of the above:
Compound,tested on,assay,system,setting,endpoint,value
C[C@H]1N=C(c2ccccc2F)c2cc(Br)ccc2-n2cnc(C(=O)O)c21,,,"mice, blood","oral gavage, 100 mg/kg",half-life,50.2 min
